Measured values of several laboratories.
Parts stem from different laboratories: compare values within a part only.
Sequence of UniProt Q9UK32 (whole entry, looked up): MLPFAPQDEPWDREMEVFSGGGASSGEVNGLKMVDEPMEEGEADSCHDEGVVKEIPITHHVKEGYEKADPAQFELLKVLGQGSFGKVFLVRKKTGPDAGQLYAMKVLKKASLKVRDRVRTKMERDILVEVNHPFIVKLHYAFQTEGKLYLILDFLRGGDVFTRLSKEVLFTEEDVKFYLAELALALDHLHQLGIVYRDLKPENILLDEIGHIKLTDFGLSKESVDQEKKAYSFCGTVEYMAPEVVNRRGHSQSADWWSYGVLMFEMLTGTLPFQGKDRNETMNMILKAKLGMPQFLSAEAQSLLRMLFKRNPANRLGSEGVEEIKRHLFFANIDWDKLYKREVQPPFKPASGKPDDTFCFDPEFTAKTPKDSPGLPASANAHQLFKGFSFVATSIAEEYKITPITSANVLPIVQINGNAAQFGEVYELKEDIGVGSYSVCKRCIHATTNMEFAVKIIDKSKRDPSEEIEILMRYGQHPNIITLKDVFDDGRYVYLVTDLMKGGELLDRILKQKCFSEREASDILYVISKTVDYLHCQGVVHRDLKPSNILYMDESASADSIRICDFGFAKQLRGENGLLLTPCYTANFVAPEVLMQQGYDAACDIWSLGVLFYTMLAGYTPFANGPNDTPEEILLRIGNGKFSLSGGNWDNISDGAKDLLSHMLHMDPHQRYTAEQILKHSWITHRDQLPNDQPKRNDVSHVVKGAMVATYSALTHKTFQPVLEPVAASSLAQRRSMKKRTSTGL
Sequence of UniProt P54760 (whole entry, looked up): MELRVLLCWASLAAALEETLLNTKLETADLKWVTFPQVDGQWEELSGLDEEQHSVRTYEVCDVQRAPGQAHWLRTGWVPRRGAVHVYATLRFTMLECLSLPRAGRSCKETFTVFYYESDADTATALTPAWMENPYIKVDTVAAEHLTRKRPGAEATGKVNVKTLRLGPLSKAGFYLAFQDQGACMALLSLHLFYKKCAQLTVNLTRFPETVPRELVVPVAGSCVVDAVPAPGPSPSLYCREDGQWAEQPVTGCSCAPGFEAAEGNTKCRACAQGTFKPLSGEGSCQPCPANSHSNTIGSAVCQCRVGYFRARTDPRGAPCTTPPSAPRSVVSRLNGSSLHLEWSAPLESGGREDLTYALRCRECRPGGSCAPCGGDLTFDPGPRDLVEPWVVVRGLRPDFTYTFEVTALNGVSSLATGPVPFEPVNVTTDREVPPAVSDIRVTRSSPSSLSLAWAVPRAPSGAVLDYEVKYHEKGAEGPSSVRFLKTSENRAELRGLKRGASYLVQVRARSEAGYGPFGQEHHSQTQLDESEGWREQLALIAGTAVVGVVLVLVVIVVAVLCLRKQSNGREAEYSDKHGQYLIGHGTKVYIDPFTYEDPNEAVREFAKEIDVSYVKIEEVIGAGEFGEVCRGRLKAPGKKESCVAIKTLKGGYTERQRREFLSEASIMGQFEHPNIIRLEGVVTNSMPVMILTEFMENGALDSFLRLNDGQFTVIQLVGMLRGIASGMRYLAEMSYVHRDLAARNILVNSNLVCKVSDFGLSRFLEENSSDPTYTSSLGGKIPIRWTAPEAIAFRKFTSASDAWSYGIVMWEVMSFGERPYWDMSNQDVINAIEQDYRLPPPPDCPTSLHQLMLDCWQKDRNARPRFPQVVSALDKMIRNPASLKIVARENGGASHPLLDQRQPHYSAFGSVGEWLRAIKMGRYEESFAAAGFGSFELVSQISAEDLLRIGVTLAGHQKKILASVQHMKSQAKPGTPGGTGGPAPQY
Sequence of UniProt O75582 (whole entry, looked up): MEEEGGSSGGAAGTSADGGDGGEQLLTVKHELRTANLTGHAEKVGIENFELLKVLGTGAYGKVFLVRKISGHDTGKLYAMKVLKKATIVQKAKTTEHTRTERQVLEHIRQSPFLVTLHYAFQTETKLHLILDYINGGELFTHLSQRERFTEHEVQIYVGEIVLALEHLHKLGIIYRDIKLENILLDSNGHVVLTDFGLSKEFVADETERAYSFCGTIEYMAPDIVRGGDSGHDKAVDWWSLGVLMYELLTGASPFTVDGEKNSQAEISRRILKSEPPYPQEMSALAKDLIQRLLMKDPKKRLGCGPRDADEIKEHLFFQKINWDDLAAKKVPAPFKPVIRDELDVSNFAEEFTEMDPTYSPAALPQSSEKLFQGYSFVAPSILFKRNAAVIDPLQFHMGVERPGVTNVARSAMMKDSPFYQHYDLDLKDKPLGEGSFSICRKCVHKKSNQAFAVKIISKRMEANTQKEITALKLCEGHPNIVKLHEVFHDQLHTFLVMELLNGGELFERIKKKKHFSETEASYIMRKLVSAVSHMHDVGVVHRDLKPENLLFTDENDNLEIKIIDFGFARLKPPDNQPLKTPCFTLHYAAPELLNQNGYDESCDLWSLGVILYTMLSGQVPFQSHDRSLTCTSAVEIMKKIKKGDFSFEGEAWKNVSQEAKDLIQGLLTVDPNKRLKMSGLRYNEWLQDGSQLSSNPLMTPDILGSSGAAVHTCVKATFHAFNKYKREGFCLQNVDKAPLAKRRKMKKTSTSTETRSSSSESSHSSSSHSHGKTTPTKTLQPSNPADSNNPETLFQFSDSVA
Sequence of UniProt Q8NE63 (whole entry, looked up): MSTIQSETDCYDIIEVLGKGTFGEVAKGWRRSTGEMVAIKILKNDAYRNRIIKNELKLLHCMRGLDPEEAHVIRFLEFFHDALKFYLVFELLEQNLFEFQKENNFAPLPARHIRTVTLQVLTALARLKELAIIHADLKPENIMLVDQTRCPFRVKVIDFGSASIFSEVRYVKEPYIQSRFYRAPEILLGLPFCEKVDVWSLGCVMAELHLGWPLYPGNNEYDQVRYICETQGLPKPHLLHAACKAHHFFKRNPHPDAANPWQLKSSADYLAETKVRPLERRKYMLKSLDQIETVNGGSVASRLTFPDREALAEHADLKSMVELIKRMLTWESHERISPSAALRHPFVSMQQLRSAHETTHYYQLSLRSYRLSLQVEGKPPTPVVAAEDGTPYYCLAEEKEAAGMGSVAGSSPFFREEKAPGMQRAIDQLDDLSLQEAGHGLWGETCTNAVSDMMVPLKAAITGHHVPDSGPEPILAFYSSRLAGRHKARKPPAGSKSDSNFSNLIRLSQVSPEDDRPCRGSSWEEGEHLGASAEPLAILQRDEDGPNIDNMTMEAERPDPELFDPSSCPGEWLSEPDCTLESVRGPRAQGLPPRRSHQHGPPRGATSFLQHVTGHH
Sequence of UniProt Q9UEE5 (whole entry, looked up): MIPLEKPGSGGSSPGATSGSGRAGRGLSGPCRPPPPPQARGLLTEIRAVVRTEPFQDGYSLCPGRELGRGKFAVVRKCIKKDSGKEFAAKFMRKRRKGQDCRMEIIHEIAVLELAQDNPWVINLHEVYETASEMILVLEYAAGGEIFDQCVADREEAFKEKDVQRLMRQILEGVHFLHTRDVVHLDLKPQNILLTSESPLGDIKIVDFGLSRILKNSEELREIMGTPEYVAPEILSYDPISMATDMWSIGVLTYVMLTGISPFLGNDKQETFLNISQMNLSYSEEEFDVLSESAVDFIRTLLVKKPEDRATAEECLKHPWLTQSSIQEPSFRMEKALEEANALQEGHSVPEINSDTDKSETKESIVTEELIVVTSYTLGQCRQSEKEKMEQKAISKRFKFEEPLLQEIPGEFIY
Sequence of UniProt P54764 (whole entry, looked up): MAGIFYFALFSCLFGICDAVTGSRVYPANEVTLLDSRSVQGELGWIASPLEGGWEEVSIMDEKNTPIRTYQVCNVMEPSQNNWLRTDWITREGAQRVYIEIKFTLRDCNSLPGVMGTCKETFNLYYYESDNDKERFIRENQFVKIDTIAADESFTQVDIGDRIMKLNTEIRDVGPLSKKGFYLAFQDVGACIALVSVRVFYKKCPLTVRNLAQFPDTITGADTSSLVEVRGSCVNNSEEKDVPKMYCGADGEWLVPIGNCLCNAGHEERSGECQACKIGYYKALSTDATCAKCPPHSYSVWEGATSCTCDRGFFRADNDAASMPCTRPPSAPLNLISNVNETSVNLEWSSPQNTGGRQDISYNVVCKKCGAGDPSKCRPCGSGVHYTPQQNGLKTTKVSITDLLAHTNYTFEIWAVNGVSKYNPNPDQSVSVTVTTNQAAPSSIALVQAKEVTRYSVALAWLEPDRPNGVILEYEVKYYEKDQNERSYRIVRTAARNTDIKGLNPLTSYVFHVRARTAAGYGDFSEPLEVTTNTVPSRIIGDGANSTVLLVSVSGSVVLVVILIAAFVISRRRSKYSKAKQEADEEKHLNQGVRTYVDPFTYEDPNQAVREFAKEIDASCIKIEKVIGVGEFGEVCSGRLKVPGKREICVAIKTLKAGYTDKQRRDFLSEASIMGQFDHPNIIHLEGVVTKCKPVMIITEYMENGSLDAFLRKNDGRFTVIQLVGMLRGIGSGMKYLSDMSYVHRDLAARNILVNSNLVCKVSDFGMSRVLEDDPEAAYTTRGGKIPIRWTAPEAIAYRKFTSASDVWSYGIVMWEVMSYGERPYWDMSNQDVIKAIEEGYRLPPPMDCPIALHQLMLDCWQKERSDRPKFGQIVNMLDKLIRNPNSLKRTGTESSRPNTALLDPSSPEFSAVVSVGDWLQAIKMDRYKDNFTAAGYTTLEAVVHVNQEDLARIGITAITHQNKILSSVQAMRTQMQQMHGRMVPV
Sequence of UniProt Q00534 (whole entry, looked up): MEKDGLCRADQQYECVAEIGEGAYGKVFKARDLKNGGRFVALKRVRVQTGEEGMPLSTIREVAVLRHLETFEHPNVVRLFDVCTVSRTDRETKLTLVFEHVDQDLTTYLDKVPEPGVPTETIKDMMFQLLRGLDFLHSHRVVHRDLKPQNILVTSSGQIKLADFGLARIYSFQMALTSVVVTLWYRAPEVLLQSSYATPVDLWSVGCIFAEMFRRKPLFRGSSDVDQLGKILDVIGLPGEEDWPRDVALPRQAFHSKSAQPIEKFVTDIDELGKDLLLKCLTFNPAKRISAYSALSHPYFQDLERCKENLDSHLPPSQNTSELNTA

Sample 1 — cell line: A-375; concentration: 100 µM; time: 18 h
Structure (SMILES) | viability
CN1C(=O)CCS(=O)(=O)C1c1ccc(Cl)cc1 (centres unmarked) | 98.1%
Clc1ccc(C(OCCN2CCCCC2)c2ccccc2)cc1 (centres unmarked) | 8.66%
Cc1ccc(-n2nccn2)c(C(=O)N2CCN(c3nc4cc(Cl)ccc4o3)CC[C@H]2C)c1 | 17.2%
O=P1(NCCCl)OCCCN1CCCl (centres unmarked) | 91.8%
CC(C)OC(=O)[C@H](C)N[P@](=O)(CO[C@H](C)Cn1cnc2c(N)ncnc21)Oc1ccccc1 | 103%
C=C1C[C@@H]2[C@H](CC[C@]3(C)C(=O)CC[C@@H]23)[C@@]2(C)C=CC(=O)C=C12 | 101%
CC(C)c1cccc(C(C)C)c1O | 14.4%
ClCC1C(CCl)[C@@]2(Cl)C(Cl)=C(Cl)[C@]1(Cl)C2(Cl)Cl (some centres unmarked) | 8%

Sample 2 — observed: enzyme activity; action: inhibitor; concentration: 0.5 µM
SMILES: O=C1NC(=O)c2c1c1c3ccccc3n3c1c1c2c2ccccc2n1[C@H]1CC[C@@H]3O1
target | method | baseline | remaining activity
Cyclin-dependent kinase 1, with cyclin B (CDK1, Homo sapiens, UniProt P06493) |  | control | 29.9%
Ephrin type-B receptor 4 (EPHB4, Homo sapiens, UniProt P54760) |  | control | 75.4%
Ephrin type-B receptor 1 (EPHB1, Homo sapiens, UniProt P54762) |  | control | 80.2%
MAP kinase-activated protein kinase 3 (MAPKAPK3, Homo sapiens, UniProt Q16644) |  | control | 93.1%
Cyclin-dependent kinase 6, with cyclin D3 (CDK6, Homo sapiens, UniProt Q00534) |  | control | 19.9%
Ribosomal protein S6 kinase alpha-5 (RPS6KA5, Homo sapiens, UniProt O75582) |  | control | 9.88%
cAMP-dependent protein kinase catalytic subunit gamma (PRKACG, Homo sapiens, UniProt P22612) |  | control | 39.8%
Mitogen-activated protein kinase kinase kinase kinase 4 (MAP4K4, Homo sapiens, UniProt O95819) |  | control | 0.995%
Ephrin type-A receptor 4 (EPHA4, Homo sapiens, UniProt P54764) |  | control | 91.4%
Homeodomain-interacting protein kinase 4 (HIPK4, Homo sapiens, UniProt Q8NE63) |  | control | 29.1%
Tyrosine-protein kinase Srms (SRMS, Homo sapiens, UniProt Q9H3Y6) |  | control | 105%
Ribosomal protein S6 kinase alpha-6 (RPS6KA6, Homo sapiens, UniProt Q9UK32) |  | control | 1.08%
Serine/threonine-protein kinase 16 (STK16, Homo sapiens, UniProt O75716) |  | control | 58.1%
Serine/threonine-protein kinase 17A (STK17A, Homo sapiens, UniProt Q9UEE5) |  | control | 8.65%
Dual specificity tyrosine-phosphorylation-regulated kinase 3 (DYRK3, Homo sapiens, UniProt O43781) |  | control | 16.6%
Testis-specific serine/threonine-protein kinase 2 (TSSK2, Homo sapiens, UniProt Q96PF2) |  | control | 87.2%
Leukocyte tyrosine kinase receptor (LTK, Homo sapiens, UniProt P29376) | radiometric |  | 21.8%
3-phosphoinositide-dependent protein kinase 1 (PDPK1, Homo sapiens, UniProt O15530) |  | control | 10.6%
Homeodomain-interacting protein kinase 2 (HIPK2, Homo sapiens, UniProt Q9H2X6) |  | control | 32.6%
Calcium/calmodulin-dependent protein kinase type II subunit beta (CAMK2B, Homo sapiens, UniProt Q13554) |  | control | 9.85%
Phosphorylase b kinase gamma catalytic chain, skeletal muscle/heart isoform (PHKG1, Homo sapiens, UniProt Q16816) |  | control | 2.75%
Serine/threonine-protein kinase WNK3 (WNK3, Homo sapiens, UniProt Q9BYP7) |  | control | 86%
Cyclin-dependent kinase 4, with cyclin D3 (CDK4, Homo sapiens, UniProt P11802) |  | control | 22.2%
Tyrosine-protein kinase receptor UFO (AXL, Homo sapiens, UniProt P30530) |  | control | 38.1%
Tyrosine-protein kinase Blk (BLK, Homo sapiens, UniProt P51451) |  | control | 37.7%

Sample 3 — cell line: HEK-293T; organism: VSV pseudotyped with VSV-G; concentration: 10 µM; time: 16 h
Compound | pseudovirus infection [%]
NNc1nncc2ccccc12 | 106
NC(CO)(CO)CO | 83.8
CC(C)NCC(O)COc1ccc(CCOCC2CC2)cc1 (centres unmarked) | 97.8
NC(=O)C(c1ccccc1)(c1ccccc1)[C@@H]1CCN(CCc2ccc3c(c2)CCO3)C1 | 96.7
CN1[C@@H]2CC[C@H]1C[C@@H](OC(c1ccccc1)c1ccccc1)C2 | 118
C=CCN1CC[C@]23c4c5ccc(O)c4O[C@H]2C(=O)CC[C@@]3(O)[C@H]1C5 | 121
CC(C)c1cccc(C(C)C)c1O | 121
O=C(O)c1cccnc1 | 95
Clc1ccc2c(c1)CCc1cccnc1C2=C1CCNCC1 | 83.6
CCCCc1oc2ccccc2c1C(=O)c1cc(I)c(OCCN(CC)CC)c(I)c1 | 118
CN/C(=N/CCSCc1nc[nH]c1C)NC#N | 108
CCCN[C@H]1CCc2nc(N)sc2C1 | 86.7
Clc1ccccc1C(c1ccccc1)(c1ccccc1)n1ccnc1 | 54.4
CCCNCC(O)COc1ccccc1C(=O)CCc1ccccc1 (centres unmarked) | 108
CC(=O)NC[C@H]1CN(c2ccc(N3CCOCC3)c(F)c2)C(=O)O1 | 121
NS(=O)(=O)c1cc(C(=O)O)c(NCc2ccco2)cc1Cl | 90.1
CC(C)NCC(O)COc1cccc2ccccc12 (centres unmarked) | 114
O=c1n(CCCN2CCN(c3cccc(Cl)c3)CC2)nc2ccccn12 | 92.2
O=P1(N(CCCl)CCCl)NCCCO1 (centres unmarked) | 107
Cc1cc2c(s1)Nc1ccccc1N=C2N1CCN(C)CC1 | 110
Cc1cc(NS(=O)(=O)c2ccc(N)cc2)no1 | 94
Clc1ccc(C(Cn2ccnc2)OCc2ccsc2Cl)c(Cl)c1 (centres unmarked) | 105
CC1(C)C[C@@H]1C(=O)N/C(=C\CCCCSC[C@H](N)C(=O)O)C(=O)O | 111
COc1cc2c(c(OC)c1OC)-c1ccc(OC)c(=O)cc1[C@@H](NC(C)=O)CC2 | 17.9
CNCCCC1c2ccccc2C=Cc2ccccc21 | 107

Sample 4 — cell line: HEK-293T-ACE2-TMPRSS2; method: cell count; concentration: 10 µM
SMILES | viability
Cc1nn(C)c2c(=O)n(C(C)C(=O)Nc3ccc(N4CCOCC4)cc3)ccc12 (centres unmarked) | 98%
O=C(NCc1ccc2c(c1)OCO2)c1nc(S(=O)(=O)Cc2ccccc2)ncc1Cl | 76%
CC(C)CC1(C)NC(=O)N(Cc2cc([N+](=O)[O-])cc3c2OCOC3)C1=O (centres unmarked) | 104%
O=C(c1ccoc1)N1CCC2(CCCN(CCCc3ccccc3)C2)C1 (centres unmarked) | 112%
Cc1nc2sccn2c1C(=O)N1CCCC(C(=O)c2cccc(C(F)(F)F)c2)C1 (centres unmarked) | 113%
CC(=O)N1CCN(C(=O)CC2c3ccccc3CCc3ccccc32)CC1 | 110%
Cc1cc2oc(=O)cc(Cn3ncc(Cl)c(Cl)c3=O)c2cc1C(C)C | 73%
CCOC(=O)N1CCN(C2CCCN(C(=O)c3cc(C)nc(C)n3)C2)CC1 (centres unmarked) | 114%
CCS(=O)(=O)c1ncc(Cl)c(C(=O)Nc2ccc(C(=O)OC)cc2)n1 | 71%
COc1cc(C=C2COC/C(=C\c3cc(OC)c(OC)c(OC)c3)C2=O)cc(OC)c1OC | 80%
CCc1ccc(C2C3=C(COC3=O)Nc3c2c(=O)n(C)c(=O)n3C)cc1 (centres unmarked) | 65%
Oc1ccc(CN2CCN(Cc3ccc(Br)s3)CC2)c2cccnc12 | 70%
CC1CN(S(=O)(=O)N2CCN(Cc3csc4ccccc34)CC2)CC(C)O1 (centres unmarked) | 69%
CS(=O)(=O)c1ncc(CN2CCCCC2c2nccs2)n1CCCc1ccccc1 (centres unmarked) | 110%
O=C(NCC1CCN(Cc2ccc3nonc3c2)C1)C1CCCCC1 (centres unmarked) | 68%
CC(C)C[C@H](NC(=O)CNCc1cc(Cl)ccc1Cl)B(O)O | 109%
CC(c1cccc(-c2ncc(F)cn2)c1)N(C)C (centres unmarked) | 81%
NC(=O)NC(CC(=O)NCc1ccc(Cl)cc1Cl)c1cccs1 (centres unmarked) | 80%
COC[C@@H]1CN(C(=O)c2ccc3[nH]ccc3c2)C[C@H]1c1nc(C)no1 | 100%

For quick reference, copied from above (sample 3):
Compound | pseudovirus infection [%]
O=C(O)c1cccnc1 | 95
Clc1ccc2c(c1)CCc1cccnc1C2=C1CCNCC1 | 83.6
CCCCc1oc2ccccc2c1C(=O)c1cc(I)c(OCCN(CC)CC)c(I)c1 | 118
CN/C(=N/CCSCc1nc[nH]c1C)NC#N | 108
CCCN[C@H]1CCc2nc(N)sc2C1 | 86.7
Clc1ccccc1C(c1ccccc1)(c1ccccc1)n1ccnc1 | 54.4
CCCNCC(O)COc1ccccc1C(=O)CCc1ccccc1 (centres unmarked) | 108
CC(=O)NC[C@H]1CN(c2ccc(N3CCOCC3)c(F)c2)C(=O)O1 | 121
NS(=O)(=O)c1cc(C(=O)O)c(NCc2ccco2)cc1Cl | 90.1
CC(C)NCC(O)COc1cccc2ccccc12 (centres unmarked) | 114
O=c1n(CCCN2CCN(c3cccc(Cl)c3)CC2)nc2ccccn12 | 92.2
O=P1(N(CCCl)CCCl)NCCCO1 (centres unmarked) | 107
